# Experimental data of several laboratories.
# Numbers after ± are the reported error.
Compound,test,test system,conditions,how to read,endpoint,result
[Cl-].[Cl-].[Ru+2].c1ccc2nc(-c3ccc4ccccc4n3)ccc2c1.c1cnc2c(c1)ccc1cccnc12.c1cnc2c(c1)ccc1cccnc12,C18 HPLC retention time,water,100 µM,baseline: standards of known log P,relative log P,1.24
CCNCC#CCNc1ccnc2cc(Cl)ccc12,measured: compound as metabolite,mouse hepatocytes,"10 µM DAQ, 30 min",baseline: parent at time zero,relative UV abundance,58.6%
C=CC(=O)Nc1cc(Nc2nccc(-c3cn(C4CC4)c4ccccc34)n2)c(OC)cc1N(C)CCNC,long-term storage stability,rat plasma,"40 ng/mL, 3 weeks, -80 °C",baseline: nominal concentration,relative error,0%
Cc1cccc(-c2cccc(C)n2)n1.[Cl-].[Cl-].[Ru+2].c1ccc(-c2ccccn2)nc1.c1ccc(-c2ccccn2)nc1,C18 HPLC retention time,water,100 µM,baseline: standards of known log P,relative log P,1.14
C[C@@H](C(=O)O)c1ccc(-c2ccccc2)c(F)c1,HPLC,solution,"concentration not given, 10 h, room temperature",,relative change of HPLC peak area,0.37%
CCCNC(=O)[C@H]1O[C@@H]1C(=O)N[C@H](C(=O)N1CCC[C@H]1C(=O)OCC1=C2C(C)=CC(C)=[N+]2[B-](F)(F)n2c(C)cc(C)c21)[C@@H](C)CC,DPBF degradation,isopropyl alcohol,irradiation above 500 nm,baseline: methylene blue,relative singlet oxygen generation,31.3 ± 8.8%
CC[C@H](C)[C@@H](C(=O)N[C@@H](CC(C)C)C(=O)N[C@@H](CO)C(=O)N[C@@H](CO)C(=O)N[C@H](C(=O)N[C@@H](CCC(=O)O)C(=O)N[C@H](C(=O)NCC(=O)N[C@@H](CO)C(=O)N[C@@H](CC(N)=O)C(=O)N[C@H](C(=O)N1C[C@H](O)C[C@H]1C(N)=O)[C@@H](C)O)C(C)C)[C@@H](C)O)N(C)C(=O)[C@H](C)NC(=O)CN(C)C(=O)[C@H](Cc1ccccc1)NC(=O)[C@H](CO)NC(=O)[C@H](CO)NC(=O)[C@H](CCCNC(=N)N)NC(=O)[C@H](CCC(N)=O)NC(=O)[C@H](CC(C)C)NC(=O)[C@H](Cc1ccccc1)NC(=O)[C@H](CCCC(=O)O)NC(=O)[C@H](C)NC(=O)[C@H](CC(C)C)NC(=O)[C@H](CCCNC(=N)N)NC(=O)[C@H](CCC(=O)O)NC(=O)[C@@H](NC(=O)[C@H](C)NC(=O)[C@@H]1CCCCNC(=O)C[C@H](NC(=O)[C@H](CCCNC(=N)N)NC(=O)CC[C@H](NC(=O)CCCCCCCCCCCCCCCCCCC(=O)O)C(=O)O)C(=O)NCC(=O)N[C@@H]([C@@H](C)O)C(=O)N[C@@H](C)C(=O)N[C@@H]([C@@H](C)O)C(=O)N1)[C@@H](C)O,RP-UPLC,"formulation, phosphate buffer, phenol, propylene glycol","4 weeks, pH 7.4, 40 °C",baseline: semaglutide,relative degradation rate,1.8
[Cl-].[Cl-].[Ru+2].c1ccc(-c2ccnc3c2ccc2c(-c4ccccc4)ccnc23)cc1.c1cnc2c(c1)ccc1cccnc12.c1cnc2c(c1)ccc1cccnc12,C18 HPLC retention time,water,100 µM,baseline: standards of known log P,relative log P,2.31
CCCNC(=O)[C@H]1O[C@@H]1C(=O)N[C@H](C(=O)N1CCC[C@H]1C(=O)OCC1=C2C(C)=CC(C)=[N+]2[B-](CC)(CC)n2c(C)cc(C)c21)[C@@H](C)CC,DPBF degradation,isopropyl alcohol,irradiation above 500 nm,baseline: methylene blue,relative singlet oxygen generation,6.3 ± 3.8%

# Repeated from above:
Compound,test,test system,conditions,how to read,endpoint,result
Cc1cccc(-c2cccc(C)n2)n1.[Cl-].[Cl-].[Ru+2].c1ccc(-c2ccccn2)nc1.c1ccc(-c2ccccn2)nc1,C18 HPLC retention time,water,100 µM,baseline: standards of known log P,relative log P,1.14
